# Results gathered from unrelated publications.
# Every numbered part comes from another study and shows a few of its results, in no order. Changes are numbered by the printed parent chain.

# Block 1 — Change: L156Q; method: DHFR PCA, deep sequencing; medium: yeast; reference: wild-type fitted maximum; reading: higher = stronger binding
# Target: ABI1, truncated, D143A, DHFR fusion (Arabidopsis thaliana)
# Notes: methotrexate growth selection, single substitutions
# Starting sequence: PYL1, truncated, DHFR fusion (Arabidopsis thaliana); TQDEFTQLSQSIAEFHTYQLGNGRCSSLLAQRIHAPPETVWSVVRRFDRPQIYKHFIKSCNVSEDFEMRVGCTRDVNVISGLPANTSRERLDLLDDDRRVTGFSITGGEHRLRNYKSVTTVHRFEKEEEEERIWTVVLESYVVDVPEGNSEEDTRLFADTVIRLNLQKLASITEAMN
added,relative binding score
(+)-ABA 0 µM,7.11%
(+)-ABA 2500 µM,92.7%
(+)-ABA 17 µM,69.3%
(+)-ABA 0.39 µM,8.21%
(+)-ABA 200 µM,94.9%
(+)-ABA 0.0091 µM,4.13%

# Block 2 — method: protein-binding microarray; form: double-stranded DNA, one strand shown; medium: in vitro; concentration: not given; reading: higher = stronger binding
# Target: Max dimerization protein 1, bHLH-zipper, MAX partner unstated (MXD1, Homo sapiens, UniProt Q05195, residues 56-136)
# Notes: k-mer, scored over probes, only values ≥0.25
# Target sequence (chain): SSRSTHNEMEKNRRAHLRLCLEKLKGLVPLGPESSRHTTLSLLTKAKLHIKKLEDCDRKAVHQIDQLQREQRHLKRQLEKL
Strand,E-score
AATGGCAC,0.253
ATGTGTCG,0.322
GCGTGACA,0.31
ACGACACG,0.327
GCATGCCC,0.404
ATTGCATG,0.253
CATGTTCA,0.254
CTGCACGC,0.357

# Block 3 — method: RNAcompete; form: RNA; medium: in vitro; concentration: 20 nM; notes: 7-mer, probes averaged, single round; reference: mean of 7-mers; reading: higher = stronger binding
# Target: PABPC1L2, full length, GST fusion (mouse, UniProt A0ABA7IW68)
# Construct (chain): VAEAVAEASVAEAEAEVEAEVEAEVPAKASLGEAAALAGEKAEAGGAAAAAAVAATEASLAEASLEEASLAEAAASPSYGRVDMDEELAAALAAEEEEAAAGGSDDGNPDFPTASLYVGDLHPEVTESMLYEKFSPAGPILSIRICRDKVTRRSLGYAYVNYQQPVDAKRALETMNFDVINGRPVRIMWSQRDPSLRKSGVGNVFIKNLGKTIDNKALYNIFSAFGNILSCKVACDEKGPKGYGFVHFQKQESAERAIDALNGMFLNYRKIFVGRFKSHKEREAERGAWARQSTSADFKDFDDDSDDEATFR
Strand,7-mer Z-score
AUGAGUA,-0.11
UAGAGAU,-0.0699
CCUAAAC,0.189
AACAGGC,0.586
UGGUGUU,-0.46
UGCACGU,-0.188
ACCUGUC,-0.269
UGGAGGC,0.318

# Block 4 — target: UBE2D3 UBC core domain (UniProt P61077); method: yeast two-hybrid; medium: yeast; notes: mostly zero background; reference: not given; reading: higher = stronger interaction
# B1: RNF166 RING domain (UniProt Q96A37); chain GDSGLEAQYTCPICLEVYHRPVAIGSCGHTFCGECLQPCLQVPSPLCPLCRLPFDPKKVDK
# B2: MYCBP2 RING domain (UniProt O75592); chain TSLKQDADDMCMICFTEALSAAPAIQLDCSHIFHLQCCRRVLENRWLGPRITFGFISCPICKNKINHIVLKD
# B3: TRIM60 RING domain (UniProt Q495X7); chain ALVNLQEESSCPICLEYLKDPVTINCGHNFCRSCLSVSWKDLDDTFPCPVCRFCFPYKSFRR
# B4: MKRN2 RING domain (UniProt Q9H000); chain FAFQASQDKVCSICMEVILEKASASERRFGILSNCNHTYCLSCIRQWRCAKQFENPIIKSCPECRVISEFVIPSV
# B5: TRIM54 RING domain (UniProt Q9BYV2); chain SMDNLEKQLICPICLEMFSKPVVILPCQHNLCRKCANDVFQASNPLWQSRGSTTVSSGGRFRCPSCRHEVVLDRHGV
# B6: TRIM22 RING domain (UniProt Q8IYM9); chain VKVDIEKEVTCPICLELLTEPLSLDCGHSFCQACITAKIKESVIISRGESSCPVCQTRFQPGNLRP
# B7: RNF183 RING domain (UniProt Q96D59); chain EQQGRELEAECPVCWNPFNNTFHTPKMLDCCHSFCVECLAHLSLVTPARRRLLCPLCRQPTVLASGQP
# B8: RNF152 RING domain (UniProt Q8N8N0); chain ETLSQDSLLECQICFNYYSPRRRPKLLDCKHTCCSVCLQQMRTSQKDVRCPWCRGVTKLPPGFS
# B9: RLIM RING domain (UniProt Q9NVW2); chain SFGENDALKTCSVCITEYTEGNKLRKLPCSHEYHVHCIDRWLSENSTCPICRRAVLASGNRE
# B10: TRIM37 RING domain (UniProt O94972); chain SVESIAEVFRCFICMEKLRDARLCPHCSKLCCFSCIRRWLTEQRAQCPHCRAPLQLRELVN
# Construct (chain): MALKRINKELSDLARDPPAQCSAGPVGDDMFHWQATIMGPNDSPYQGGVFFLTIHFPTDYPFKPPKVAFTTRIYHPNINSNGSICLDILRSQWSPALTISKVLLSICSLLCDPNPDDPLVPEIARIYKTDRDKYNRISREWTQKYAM
Sequence,lacZ reporter activity
B1 (RNF166 RING domain),0
B2 (MYCBP2 RING domain),0
B3 (TRIM60 RING domain),0
B4 (MKRN2 RING domain),0
AEADPLGRFTCPVCLEVYEKPVQVPCGHVFCSACLQECLKPKKPVCGVCRSALAPGVRAV (RNF114 RING domain (UniProt Q9Y508)),0
QVQSRTKIEECVVCSDKKAAVLFQPCGHMCACENCANLMKKCVQCRAVVERRVPFI (MIB1 RING domain (UniProt Q86YT6)),0
B5 (TRIM54 RING domain),0
B6 (TRIM22 RING domain),0
B7 (RNF183 RING domain),0
FVKTVEDKYKCEKCHLVLCSPKQTECGHRFCESCMAALLSSSSPKCTACQESIVKDKVF (TRAF3 RING domain (UniProt Q13114)),0
PEELAVNNDDCAICWDSMQAARKLPCGHLFHNSCLRSWLEQDTSCPTCRMSLNIADNNR (AMFR RING domain (UniProt Q9UKV5)),4920
B8 (RNF152 RING domain),0
LGTKLEAKYLCSACRNVLRRPFQAQCGHRYCSFCLASILSSGPQNCAACVHEGIYEEGIS (TRAF2 RING domain (UniProt Q12933)),0
MNDVLENELQCIICSEYFIEAVTLNCAHSFCSYCINEWMKRKIECPICRKDIKSKTYSL (RNF8 RING domain (UniProt O76064)),0
B9 (RLIM RING domain),0
B10 (TRIM37 RING domain),0

# Single results of other studies — starting sequence: viral docking peptide; KGVKRKLFAEDSS
Change,target,test,test system,conditions,scale,measurement,value
V3D,"CCNE1, cyclin fold, Cln2 fusion (human)","yeast growth competition, sequencing",yeast,strong parent motif,"reference: not given, higher = stronger binding",normalised enrichment score,-0.112

# Repeated from above (block 3):
Strand,7-mer Z-score
UAGAGAU,-0.0699
CCUAAAC,0.189
AACAGGC,0.586
UGGUGUU,-0.46
UGCACGU,-0.188
ACCUGUC,-0.269
